Measurements of several laboratories.
A part holds a random share of what one study measured.

Sample 1 — method: EMSA with sequencing; form: double-stranded DNA, one strand shown; medium: in vitro; tested at: 10 and 20 nM; baseline: negative control set to 0; direction: higher = stronger binding; endpoint: normalised bound fraction
Target: Hepatocyte nuclear factor 3-alpha (Foxa1, Mus musculus, UniProt P35582, residues 1-468, full length assumed)
Setting: whole designed probe, mean of two concentrations, ends assumed
Shared flanks, not repeated: GTGAGCGGTGCCCATTGATGGGGAAC … TTTCACTGGGATCGTGGGGAC
Construct (chain): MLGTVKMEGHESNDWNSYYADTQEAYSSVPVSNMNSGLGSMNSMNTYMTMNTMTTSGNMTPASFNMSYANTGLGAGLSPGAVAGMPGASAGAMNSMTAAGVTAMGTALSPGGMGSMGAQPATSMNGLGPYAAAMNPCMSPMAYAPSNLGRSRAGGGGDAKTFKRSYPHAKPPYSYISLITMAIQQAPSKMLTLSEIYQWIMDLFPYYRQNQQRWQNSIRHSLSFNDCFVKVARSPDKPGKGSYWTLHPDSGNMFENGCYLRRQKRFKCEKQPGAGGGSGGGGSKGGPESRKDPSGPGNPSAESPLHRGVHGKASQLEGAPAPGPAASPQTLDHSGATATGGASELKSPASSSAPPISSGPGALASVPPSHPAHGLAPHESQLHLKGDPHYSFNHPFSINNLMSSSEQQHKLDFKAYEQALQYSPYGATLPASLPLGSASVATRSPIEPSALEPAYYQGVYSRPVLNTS
GCCTTGTTCAATTCTAGAATTTAATCTAGGATGACCCATTGTTTCTATTTGTCACATCTGTTTAGACTTCTCTGGTCTATGACAATTTCTCAGAGATTGCTTATTTTTCATGACTTCATAGTTTTGAGGAGTACTCATCAGGTATTTTGTGAAATGTCCCTCAATTTGTATTTGTCTTATGTTTTCTCATAAT: 0.176 ratio
ATCTTCCCCCTCTTCCTTGCCCCACCAGCTCACCTTCCCGGGTTATTTGCAGATAGGAAAATAAATAAAGCCGGCATTCGTTAACGCAGTTCTGGCGCAAACTGCTGTTTGCTCTGGATGAATCATGGTCCTTTGGCGACGCCAGGCTCCGGGAGAGCAAAGCACCGTGTCAGGGCCATGATCCGGGGTGGCC: 0.351 ratio
AAGCCTCCAGATAGAAGCCTCTGGGCTTCTTGCAGGAGTGACTTTGAGCAGAGCCATGATGTATACATGAACCATTAAGAAGCACATTCTCAGAGTAAACAGGGGTGCACAATATGAAATCTCATACTGATCACATATGCCAGTGTGATTGCAGGGTTTATTTTTAGGAGTTTCATTTGGGGATCTTTTTCCA: 0.0599 ratio
CACACTCACCAAGTGCTTTTTCATCATGGCATCAAGGATCATGGAAACGTTACACCAGCCACTCTTTTCTGGAGCAATGTTGACCCATGTCTGGGCAAATAAGAAAGGTTTCGTATGAGTATGTCTGTTCAAATAAATCCTAACTTTCTCACTGGGAAGGAATGACTAGTTCCCACGACTCACAGGACACCAC: 0.236 ratio
TGGTAGAATGTGAAACTTTTAATACAGCCACTTGAATTGTCTACATATTCTTTTTAAGGGATATGAACCTTAGTTACACATTTTTTCTTCTGTATGTTTACATAGACTCCATCAGAAAGGTTTCAGCCAAGTAGCCTCTTTCCAGCTTCCAATGCCACATATTTGCAGAATGAAGAAAACTCAACTGGAGAAG: 0.403 ratio

Sample 2 — method: RNA Bind-n-Seq; form: RNA; medium: in vitro; tested at: 200 nM; setting: whole 134-nt RNA, ends assumed; added: 150 mM KCl; baseline: input library; direction: higher = stronger binding; endpoint: log2 enrichment
Target: Fragile X messenger ribonucleoprotein 1, C-terminal low-complexity region (Fmr1, Mus musculus, UniProt P35922)
Shared flanks, not repeated: GGGAGUUCUACAGUCCGACGAUC … UGGAAUUCUCGGGUGUCAAGG
AAGUCCUGUGCUACACAUCGUAUGUACCGAAUCGGGGCCCGGGCCCGGGGCCCGGGAAAGUAUUAUGUUACGCCGUUCGGAUCUGCACUU: -0.856
GUCCUGUGCUACACAUCGUAUGUACCGAAUCGGGGUUUGGGGUGGGGUUUUUUUGGGGAAAGUAUUAUGUUACGCCGUUCGGAUCUGCAC: 0.74
CUCAAGUCCUGUGCUACACAUCGUAUGUACCGAAUCGGGGUGGGGUGGGUGGGGAAAGUAUUAUGUUACGCCGUUCGGAUCUGCACUUCC: 0.724
CUGUGCUACACAUCGUAUGUACCGAAUCGGGGUUUUUUUGGGUUUUUUUGGUUUUUUUGGGGAAAGUAUUAUGUUACGCCGUUCGGAUCU: -0.188
UGGCCCUGGUGGCAAGCGGGGAGGAAGAGGUGGCCUCAUGGAUCGUGGUGGUCCCGGUGGAAUGUUCAGAGGUGGCCGUGGUGGAGACAG: 0.035
AGUCCUGUGCUACACAUCGUAUGUACCGAAUCGGGGUGGGGUUUUUGGGGUUUGGGGAAAGUAUUAUGUUACGCCGUUCGGAUCUGCACU: 0.845
CCUGUGCUACACAUCGUAUGUACCGAAUCGGGAAAAAGGGUUUUUUUGGGAAAAAAAGGGAAAGUAUUAUGUUACGCCGUUCGGAUCUGC: -0.992
UCUCUUGCUCAAGUUUUCUCUCACAGAUGACAGCCACCUACCACAUAACAUGACCAGCAAACGGACUGUUCCUAGUCCAGAGGGCCUUGC: 0.618

Sample 3 — method: competition protein-binding microarray; form: double-stranded DNA, one strand shown; medium: in vitro; tested at: 2 µM; added: Cbf1 competitor, 0.05 µM; direction: higher = stronger binding; endpoint: fluorescence intensity; shared flanks, not repeated: … GTCTTGATTCGCTTGACGCTGCTG
Target: Phosphate system positive regulatory protein PHO4, full length, GST-tagged (PHO4, Saccharomyces cerevisiae, UniProt P07270, residues 1-312)
Setting: whole 60-bp probe, lowest competitor level
Residues (chain): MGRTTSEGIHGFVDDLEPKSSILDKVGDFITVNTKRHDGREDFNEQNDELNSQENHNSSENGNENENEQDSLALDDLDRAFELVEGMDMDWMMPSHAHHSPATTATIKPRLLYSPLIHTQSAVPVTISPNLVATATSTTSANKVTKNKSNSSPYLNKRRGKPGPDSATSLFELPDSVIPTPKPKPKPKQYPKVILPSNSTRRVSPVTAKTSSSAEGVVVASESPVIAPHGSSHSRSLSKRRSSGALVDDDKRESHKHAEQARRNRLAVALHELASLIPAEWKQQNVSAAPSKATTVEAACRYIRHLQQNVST
TGAATGCACCTATTGCACGCTGCGAAGCTAACGTAG: 8580 a.u.
GGCGCAGCGCATCTGCACGTGGTTCCAGGCCGAGCT: 17100 a.u.
GTCTTGTCTCATTGTTCGGTGGGTGTCCCCACTTCA: 4740 a.u.
CTTTTTGGAAACGGCCACGTCTTTTGACAGATTTAG: 6110 a.u.
TGCGCAACAACTTGGTCTGTGGGTGTATGTCTAGAA: 4870 a.u.
TCGGATTACTTTACCCACGTGCGATATCATCAATTA: 17500 a.u.
CCGATAACTCTTTGGAACGTGTTTCGAAGGAGTTGG: 12800 a.u.
CATACCCAACCTTGTTGAGTGGGTGAAGATATTTGT: 3960 a.u.

Mixed results
COCCCNC(=O)C1CCCN(S(=O)(=O)c2ccccc2)CCC(=O)NCC1 (stereo not shown)
remaining compound (mouse, microsomes or S9; 2 µM, 0.5 h): 76.6%

Excerpt of the above (sample 2):
CUGUGCUACACAUCGUAUGUACCGAAUCGGGGUUUUUUUGGGUUUUUUUGGUUUUUUUGGGGAAAGUAUUAUGUUACGCCGUUCGGAUCU: -0.188
UGGCCCUGGUGGCAAGCGGGGAGGAAGAGGUGGCCUCAUGGAUCGUGGUGGUCCCGGUGGAAUGUUCAGAGGUGGCCGUGGUGGAGACAG: 0.035
AGUCCUGUGCUACACAUCGUAUGUACCGAAUCGGGGUGGGGUUUUUGGGGUUUGGGGAAAGUAUUAUGUUACGCCGUUCGGAUCUGCACU: 0.845
